Experimental data collected from several papers.
Each numbered part is a random draw from the data of one study; scales do not carry over between parts. Values joined by “and” are separate records of one study, mostly repeats; a detail may differ. Numbers after ± are the reported error.

Study 1
Organism: SARS-CoV-2 Wuhan spike VSV pseudovirus
Effect on: pseudovirus entry
Concentration: 10 µM
Clc1cc2c(c3ncccc13)OCN(Cc1cccnc1)C2 has an inhibition of 62%.
The inhibition of O=C(N[C@@H]1CN(Cc2c[nH]c3ccccc23)C[C@H]1CO)c1ccccc1 is reported as 72%.
For O=C(c1ccc(N2CC(O)C2)nc1)N1CCC(CCc2ccccc2)CC1, the inhibition was 100%.
COC[C@@H]1CN(C(=O)CC(C)C)C[C@H]1c1nc(C)no1 has an inhibition of 83%.
The inhibition of Cc1cc(C(=O)NC2CC(=O)N(Cc3ccccc3Cl)C2)nc(C)n1 (stereo not shown) is reported as 71%.
Cc1cc(C2CCCN2Cc2cccc(C(=O)Nc3nccs3)c2)no1 (stereo not shown) has an inhibition of 99%.
For CCCCCNC(=O)c1ccc(Oc2nccnc2N2CCC(C)CC2)cc1, the inhibition was 87%.
COc1ccc(NC(=O)C2CCN(C(=O)C3Sc4ccccc4NC3=O)CC2)cc1 (stereo not shown) has an inhibition of 88%.
CCn1ncc(CN2CC(F)(F)C[C@H]2c2nc(C(=O)NC)no2)c1C has an inhibition of 88%.
With CC(C)c1ccc(C2C3=C(COC3=O)Nc3c2c(=O)n(C)c(=O)n3C)cc1 (stereo not shown) the inhibition was 95%.
With O=C(c1cccc(N2CCCN(Cc3ccccc3)C2=O)c1)N1CCN(c2cccc(Cl)c2)CC1 the inhibition was 69%.
With Cc1cc(N2CCCC(CO)C2)nc(C)n1 (stereo not shown) the inhibition was 99%.
With CCc1c(O)cc(O)c(C(=O)c2ccc(OCCN3CCOCC3)c(OC)c2)c1CC(=O)N(CCOC)CCOC the inhibition was 93%.
The inhibition of CCc1ccccc1NS(=O)(=O)c1ccc(-n2ncc(Cl)c(Cl)c2=O)cc1 is reported as 97%.
With Cc1ccccc1OCCCn1cc(C(=O)c2ccccc2)c2ccccc21 the inhibition was 80%.
With CCN(CCn1cccn1)C(=O)c1ccc(OC2CCN(C(=O)C3CC3)CC2)cc1 the inhibition was 76%.
For Cc1ncsc1CCN(C)C(=O)[C@H]1Cc2ccccc2CN1, the inhibition was 100%.
O=C(c1csc2c1CCCC2)N1CCCC(CNS(=O)(=O)c2cccs2)C1 (stereo not shown) has an inhibition of 81%.

Mixed results
Spike glycoprotein S2 subunit: Spike glycoprotein, S2 subunit (Severe acute respiratory syndrome coronavirus 2, UniProt P0DTC2)
rep papain-like protease: Replicase polyprotein 1ab, papain-like protease (rep, Severe acute respiratory syndrome coronavirus 2, UniProt P0DTD1)
CCC(CC)COC(=O)[C@H](C)N[P@](=O)(OC[C@H]1O[C@@](C#N)(c2ccc3c(N)ncnn23)[C@H](O)[C@@H]1O)Oc1ccccc1 has an EC50 of 0.3 nM (SARS-CoV-2; viral replication; Omicron BA.1; 24 h).
For Cc1cc(C(=O)N[C@@H](Cc2cccc3ccccc23)C(=O)N[C@@H](CC(C)C)C(=O)N[C@H](C=O)C[C@@H]2CCCNC2=O)no1, “EC50 fold change” read 0.15 ± 0.02 (SARS-CoV-2; viral replication; Omicron BA.1 T21I/E166V replicon; relative to: BA.1 wild type).
The inhibition of CC(C)(C)[C@H](NC(=O)C(F)(F)F)C(=O)N1C[C@H]2[C@@H]([C@H]1C(=O)N[C@H](C#N)C[C@@H]1CCNC1=O)C2(C)C is reported as 99.9% (SARS-CoV-2; viral replication; VeroE6/TMPRSS2, Omicron variants; 2.7 µM).
With CC(C)[C@H](NC(=O)[C@H](CCCNC(=N)N)NC(=O)N[C@@H](Cc1ccccc1)C(=O)O)C(=O)N[C@H](C=O)CCCNC(=N)N the EC50 was greater than 50000 nM (Severe acute respiratory syndrome coronavirus 2; viral entry, inhibitor; A549-hACE2-TMPRSS2; pseudovirus).
With Cc1cc2c(C(C)C)c(O)c(O)c(C=O)c2c(O)c1-c1c(C)cc2c(C(C)C)c(O)c(O)c(C=O)c2c1O the ΔTm was -1.28 °C (Spike glycoprotein S2 subunit; S2 subunit).
The IC50 of C[C@H]1COc2c(N3CCN(C)CC3)c(F)cc3c(=O)c(C(=O)O)cn1c23 is reported as 57000 nM (Mycobacterium tuberculosis; bacterial growth; fluoroquinolone-resistant).
For CC(C)(C)[C@H](NC(=O)C(F)(F)F)C(=O)N1C[C@H]2[C@@H]([C@H]1C(=O)N[C@H](C#N)C[C@@H]1CCNC1=O)C2(C)C, the EC50 was 20 nM (SARS-CoV-2; viral replication, replicon; S6799A Mpro cleavage-site mutant).
Cc1cc(C(C#N)c2ccc(Cl)cc2)c(Cl)cc1NC(=O)c1cc(I)cc(I)c1O (stereo not shown) has a ΔTm of -2.39 °C (Spike glycoprotein S2 subunit; S2 subunit).
For CC[C@@]1(O)C[C@H](O[C@H]2C[C@H](N(C)C)[C@H](O[C@H]3C[C@H](O)[C@H](O[C@H]4CCC(=O)[C@H](C)O4)[C@H](C)O3)[C@H](C)O2)c2c(cc3c(c2O)C(=O)c2c(O)cccc2C3=O)[C@H]1C(=O)OC, the IC50 was roughly 100 nM (SARS-CoV-2 variants; viral replication; Calu-3; range over variants).
N=C(N)c1ccc2cc(OC(=O)c3ccc(N=C(N)N)cc3)ccc2c1 gave an IC50 of 20 nM (Calu-3; pseudoparticle entry; SARS-CoV-2 spike pseudotyped particles).
C=CCn1c(CSc2ccccc2[N+](=O)[O-])n[nH]c1=S gave an IC50 of 610 ± 220 nM (Replicase polyprotein 1ab, nsp13 R392C (rep, Severe acute respiratory syndrome coronavirus 2, UniProt P0DTD1, R5716C); enzyme activity, inhibitor).
The IC50 of COC(=O)[C@H](Cc1cccc(C(=N)N)c1)[C@@H](C)NC(=O)c1ccc(-c2cc[n+]([O-])cc2)cc1 is reported as 15800 nM (Calu-3; pseudoparticle entry; SARS-CoV-2 spike pseudotyped particles).
With CCc1cc(=O)c2c(OCC(O)CNC(C)C)c3ccoc3c(OC)c2o1 (stereo not shown) the MIC was 32 µg/mL (Mycobacterium tuberculosis; Alamar blue; 22/22, SIRE and linezolid resistant; 21 days, 37 °C).
CCCCCCCCCCC[C@@H](C[C@@H]1OC(=O)[C@H]1CCCCCC)OC(=O)[C@H](CC(C)C)NC=O gave an IC50 of roughly 500000 nM (Severe acute respiratory syndrome coronavirus 2; viral replication, inhibitor; Vero C1008).
Nc1ncnc2c1ncn2[C@@H]1O[C@H](CO)C[C@H]1O — result for “viral RNA level”: 0.285 and 0.261 and 0.277 (SARS-CoV-2 Omicron; Huh-7; concentration not given, 3 h, unit not given; relative to: DMSO).
For NNC(=O)c1ccncc1, the MIC was 0.33 µM (Mycobacterium tuberculosis; fluoroquinolone-resistant).
Oc1cc(Cl)ccc1Oc1ccc(Cl)cc1Cl gave an MIC of 25 µg/mL (Mycobacterium tuberculosis; V2475).
With Nc1ncc(-c2ccnc(Nc3ccncc3)n2)c(CC2CC2)n1 the IC50 was less than 600 nM (SARS-CoV-2; Vero C1008).
The EC50 of N#C[C@@]1(c2ccc3c(N)ncnn23)O[C@H](CO)[C@@H](O)[C@H]1O is reported as 490 nM (SARS-CoV-2; viral replication; Omicron BA.1; 24 h).
The activity of Cc1cc(Nc2ncc(Cl)c(Nc3ccccc3S(=O)(=O)C(C)C)n2)c(OC(C)C)cc1C1CCNCC1 is reported as 41.2% (rep papain-like protease; concentration not given, C111S mutant; relative to: positive control).
C[C@@H]1O[C@@H](O[C@H]2[C@H](OC(=O)[C@]34CCC(C)(C)C[C@H]3C3=CC[C@@H]5[C@@]6(C)C[C@H](O)[C@H](O[C@@H]7O[C@H](CO)[C@@H](O)[C@H](O)[C@H]7O)C(CO)(CO)[C@@H]6CC[C@@]5(C)[C@]3(C)C[C@H]4O)OC[C@H](O)[C@@H]2O)[C@H](O)[C@H](O)[C@H]1O[C@@H]1OC[C@@H](O)[C@H](O[C@@H]2OC[C@](O)(CO)[C@H]2O)[C@H]1O gave an IC50 of 1340 nM (SARS-CoV-2; pseudovirus entry; H1299 ACE2/TMPRSS2+).
The selectivity index of CCCCCCCCCCCC(=O)ONc1ccn([C@@H]2O[C@H](CO)[C@@H](O)[C@H]2O)c(=O)n1 is reported as 7 to 49 (SARS-CoV-2; relative to: CC50 over EC50).
With CCc1cc(=O)c2c(OCC(O)CNC(C)(C)C)c3ccoc3c(OC)c2o1 (stereo not shown) the MIC was 32 µg/mL (Mycobacterium tuberculosis; Alamar blue; 22/22, SIRE and linezolid resistant; 21 days, 37 °C).
With CC(C)(Oc1ccc(C(=O)c2ccc(Cl)cc2)cc1)C(=O)O the activity was 21.7% (rep papain-like protease; concentration not given, C111S mutant; relative to: positive control).
For CN(C)c1ccc(N(Cc2cc(Cl)cs2)C(=O)Cc2cncc3cccc(O)c23)cc1, the EC50 was 30 to 50 nM (SARS-CoV-2; viral replication; BQ.1.1 and XBB.1.5; two human cell lines).

A few entries again (mixed results):
Cc1cc(C(C#N)c2ccc(Cl)cc2)c(Cl)cc1NC(=O)c1cc(I)cc(I)c1O (stereo not shown) has a ΔTm of -2.39 °C (Spike glycoprotein S2 subunit; S2 subunit).
For CC[C@@]1(O)C[C@H](O[C@H]2C[C@H](N(C)C)[C@H](O[C@H]3C[C@H](O)[C@H](O[C@H]4CCC(=O)[C@H](C)O4)[C@H](C)O3)[C@H](C)O2)c2c(cc3c(c2O)C(=O)c2c(O)cccc2C3=O)[C@H]1C(=O)OC, the IC50 was roughly 100 nM (SARS-CoV-2 variants; viral replication; Calu-3; range over variants).
N=C(N)c1ccc2cc(OC(=O)c3ccc(N=C(N)N)cc3)ccc2c1 gave an IC50 of 20 nM (Calu-3; pseudoparticle entry; SARS-CoV-2 spike pseudotyped particles).
C=CCn1c(CSc2ccccc2[N+](=O)[O-])n[nH]c1=S gave an IC50 of 610 ± 220 nM (Replicase polyprotein 1ab, nsp13 R392C (rep, Severe acute respiratory syndrome coronavirus 2, UniProt P0DTD1, R5716C); enzyme activity, inhibitor).
The IC50 of COC(=O)[C@H](Cc1cccc(C(=N)N)c1)[C@@H](C)NC(=O)c1ccc(-c2cc[n+]([O-])cc2)cc1 is reported as 15800 nM (Calu-3; pseudoparticle entry; SARS-CoV-2 spike pseudotyped particles).
With CCc1cc(=O)c2c(OCC(O)CNC(C)C)c3ccoc3c(OC)c2o1 (stereo not shown) the MIC was 32 µg/mL (Mycobacterium tuberculosis; Alamar blue; 22/22, SIRE and linezolid resistant; 21 days, 37 °C).
CCCCCCCCCCC[C@@H](C[C@@H]1OC(=O)[C@H]1CCCCCC)OC(=O)[C@H](CC(C)C)NC=O gave an IC50 of roughly 500000 nM (Severe acute respiratory syndrome coronavirus 2; viral replication, inhibitor; Vero C1008).
